Experimental data pooled from the literature.
Each line is one published result; not all experiments were run side by side.

SMILES | organism | test | system | conditions | MIC
CCCCCCCCCCCCCC(=O)N[C@H](CCN)C(=O)N[C@@H]1C(=O)N[C@@H](CCN)C(=O)N[C@@H](CC(C)C)C(=O)N[C@@H](CCN)C(=O)N[C@H](Cc2ccccc2)C(=O)N[C@@H](CC(C)C)C(=O)N[C@@H](CCN)C(=O)N[C@H](CCN)C(=O)N[C@@H](C(C)C)C(=O)N[C@@H](CC(=O)O)C(=O)O[C@@H]1C | Proteus mirabilis |  | intrinsically colistin-resistant |  | 8 µg/mL
C=C1NC(=O)C2C[S+]([O-])CC3NC(=O)C(CSC(C)C(NC(=S)C(Cc4cnc[nH]4)NC(=O)c4csc(C(C)NC(C)=O)n4)C(=O)N[C@H](CC(C)C(=O)NC(=O)CC(C(=O)O)NC(=O)C(C)NC3=O)C(=O)N2)NC(=O)[C@@H]2CCCN2C(=O)[C@@H](CC(C)C)NC1=O (stereo partly shown) | Enterobacter aerogenes |  | ATCC 13048 |  | > 32 µg/mL
[O-][N+]1=C(c2ccccc2)C2=NCCCN2c2ncccc21 | Clostridioides difficile |  |  |  | 0.25 to 1 µg/mL
OB(O)c1cnn(-c2cccc(Cl)c2)c1 | Citrobacter freundii | bacterial growth | AmpC overproducer clinical isolate | without cefotaxime | > 2050 µg/mL
CC1(C)C(NC(=O)C(=NOC2(C(=O)O)CC2)c2csc(N)n2)C(=O)N1OS(=O)(=O)O (stereo not shown) | Klebsiella pneumoniae |  | ATCC 1706, ESBL and NDM | compound alone | 2 µg/mL
CC[C@H](C)[C@H](NC(=O)[C@H](C)NC(=O)CNC(=O)[C@H](C)NC(=O)[C@H](CCCCN)NC(=O)[C@H](CO)NC(=O)[C@H](C)NC(=O)[C@H](CCSC)NC(=O)CN)C(=O)N[C@@H](C)C(=O)NCC(=O)N[C@@H](CCCCN)C(=O)N[C@H](C(=O)N[C@@H](C)C(=O)N[C@@H](CCCCN)C(=O)N[C@H](C(=O)N[C@@H](C)C(=O)N[C@@H](CC(C)C)C(=O)N[C@@H](CCCCN)C(=O)N[C@@H](C)C(=O)N[C@@H](CC(C)C)C(N)=O)C(C)C)[C@@H](C)CC | Escherichia coli |  | 0370, nalidixic acid-resistant, minimal salts medium | 18 h, 37 °C | 2.5 µg/mL
CC[C@H](C)[C@@H]1NC(=O)[C@H](CO)NC(=O)C(C)(CCCCN)NC(=O)[C@@H]2CSSC[C@@H](C(=O)N[C@@H](Cc3ccc(O)cc3)C(N)=O)NC(=O)[C@H](CCCCN)NC(=O)[C@@H]3CSSC[C@H](NC(=O)[C@H](CCCNC(=N)N)NC(=O)C(C)(CC(C)C)NC(=O)[C@H](CC(=O)O)NC(=O)[C@H](CC(=O)O)NC(=O)[C@H](CCC(=O)O)NC(=O)[C@H](CC(N)=O)NC(=O)[C@H](Cc4c[nH]c5ccccc45)NC(=O)[C@@H]4CCCN4C(=O)CNC(=O)[C@H](CC(N)=O)NC(=O)[C@@H](NC(=O)CNC(=O)[C@H](Cc4ccccc4)NC(=O)CN)CSSC[C@H](NC(=O)[C@H](Cc4ccc(O)cc4)NC(=O)CNC(=O)CNC(=O)[C@H](CCCCN)NC(=O)[C@H](Cc4ccc(O)cc4)NC(=O)CNC(=O)[C@H](CCCCN)NC1=O)C(=O)N[C@@H](C)C(=O)N[C@@H](CCCCN)C(=O)NCC(=O)NCC(=O)N[C@@H](Cc1ccccc1)C(=O)N[C@@H](C(C)C)C(=O)N3)C(=O)N[C@@H](Cc1c[nH]cn1)C(=O)NC(C)(C)C(=O)N[C@@H](Cc1c[nH]cn1)C(=O)N2 (stereo partly shown) | Streptococcus pneumoniae | broth microdilution | 19F | 18 h | 0.5 µM
O=[N+]([O-])c1ccc(C2=[N+]([O-])c3ccccc3N3CCCN=C23)cc1 | Clostridioides difficile |  |  |  | 0.06 to 1 µg/mL
CC[C@H](C)[C@H](NC(=O)[C@H](CCCNC(=N)N)NC(=O)[C@H](CO)NC(=O)[C@H](Cc1ccc(O)cc1)NC(=O)[C@@H](NC(=O)[C@@H](NC(=O)[C@H](C)NC(=O)CNC(=O)[C@H](CCCCN)NC(=O)[C@H](CCCCN)NC(=O)CCNC(=O)CCCCCNC(=O)[C@H](CCCNC(=N)N)NC(=O)CCCCCNC(=O)[C@H](CCCNC(=N)N)NC(=O)[C@H](CCCNC(=N)N)NC(=O)CCCCCNC(=O)[C@H](CCCNC(=N)N)NC(=O)[C@H](CCCNC(=N)N)NC(=O)CCCCCNC(=O)[C@H](CCCNC(=N)N)NC(=O)[C@H](CCCNC(=N)N)NC(=O)CCCCCNC(=O)[C@@H](N)CCCNC(=N)N)C(C)C)[C@@H](C)O)C(=O)N[C@@H](CO)C(=O)NCC(=O)N[C@@H](CCC(N)=O)C(=O)N[C@@H](Cc1ccc(O)cc1)C(=O)N[C@@H](CCCCN)C(=O)O | Escherichia coli | broth microdilution | ATCC 25922, Mueller-Hinton broth | added: MgCl2 20 mM | > 192 µM
CC[C@H](C)[C@H](NC(=O)[C@H](CCCCN)NC(=O)[C@H](CCCCN)NC(=O)[C@H](Cc1ccccc1)NC(=O)[C@H](Cc1ccccc1)NC(=O)[C@H](CCCCN)NC(=O)[C@H](CCCCN)NC(=O)[C@H](Cc1ccccc1)NC(=O)[C@H](CCCNC(=N)N)NC(=O)[C@@H](N)CCCCN)C(=O)N[C@@H](CCCCN)C(=O)N[C@@H](CCCCN)C(=O)N[C@@H](CO)C(=O)N[C@H](C(=O)N[C@@H](CCCCN)C(=O)N[C@@H](CCCCN)C(=O)N[C@@H](CCCNC(=N)N)C(=O)N[C@H](C(=O)N[C@@H](CCCCN)C(=O)N[C@@H](CCCCN)C(=O)N[C@@H](CC(C)C)C(=O)N[C@@H](Cc1ccccc1)C(=O)N[C@@H](CCCCN)C(=O)N[C@@H](CCCCN)C(=O)N1CCC[C@H]1C(=O)N[C@@H](CCCNC(=N)N)C(=O)N[C@H](C(=O)N[C@H](C(=O)N1CCC[C@H]1C(=O)N[C@H](C(=O)N[C@@H](CO)C(=O)N[C@H](C(=O)N1CCC[C@H]1C(=O)N[C@@H](Cc1ccccc1)C(=O)O)[C@@H](C)CC)[C@@H](C)CC)[C@@H](C)CC)C(C)C)C(C)C)C(C)C | Escherichia coli |  | E24 | 20 h, added: 100 mM NaCl | 4 µg/mL
CC[C@H](C)[C@H](N)C(=O)N[C@@H](CCCNC(=N)N)C(=O)N[C@H](C(=O)N[C@@H](Cc1c[nH]c2ccccc12)C(=O)N[C@@H](Cc1ccccc1)C(=O)N[C@H](C(=O)N[C@@H](CCCCN)C(=O)N[C@H](C(=O)N[C@@H](CCCNC(=N)N)C(=O)N[C@@H](CCCCN)C(=O)N[C@@H](CCSC)C(=O)N[C@@H](CCCCN)C(=O)N[C@@H](C)C(=O)N[C@H](C(=O)N[C@@H](Cc1ccc(O)cc1)C(=O)N[C@@H](Cc1c[nH]cn1)C(=O)N[C@H](C(N)=O)[C@@H](C)O)[C@@H](C)CC)C(C)C)[C@@H](C)CC)C(C)C | Enterobacter sp. | broth dilution | KCTC 2625 |  | < 3.1 µM
C[N+]1=C2C(c3ccc([N+](=O)[O-])cc3)=[N+]([O-])c3ccccc3N2CCC1 | Clostridioides difficile |  |  |  | 0.25 to 1 µg/mL
CC[C@H](C)C[C@H](C)CCCCCCCCC(=O)N[C@H]1C[C@@H](O)[C@@H](NCCN)NC(=O)[C@@H]2[C@@H](O)CCN2C(=O)[C@H]([C@H](O)CCN)NC(=O)[C@H]([C@H](O)[C@@H](O)c2ccc(O)cc2)NC(=O)[C@@H]2C[C@@H](O)CN2C(=O)[C@H]([C@@H](C)O)NC1=O | Saccharomyces cerevisiae |  | S288c wild type |  | 0.008 µg/mL
CC1COC2=C1C(=O)C(=O)c1c2ccc2c1C(OC(=O)CNC(=O)CN)CCC2(C)C (mixture of isomers) | Cutibacterium acnes |  | GDMCC 1.243 | 48 h, anaerobic | 125 µM
CC[C@H](C)[C@H](NC(=O)[C@H](Cc1c[nH]c2ccccc12)NC(=O)[C@H](Cc1ccc(O)cc1)NC(=O)[C@H](CCCCN)NC(=O)[C@H](CC(C)C)NC(=O)[C@@H](N)CO)C(=O)N[C@@H](CCCNC(=N)N)C(=O)N[C@@H](Cc1ccc(O)cc1)C(=O)N[C@@H](CCCCN)C(=O)N[C@@H](CCCNC(=N)N)C(=O)N[C@@H](CCC(N)=O)C(=O)NCC(=O)N[C@@H](C)C(=O)N[C@@H](C)C(=O)N[C@@H](CCCNC(=N)N)C(=O)N[C@@H](Cc1ccccc1)C(N)=O | Salmonella typhimurium | broth dilution | SL1344 |  | 6.3 µM
[O-][N+]1=C(c2ccccc2)C2=NCCN2c2ccccc21 | Clostridioides difficile |  |  |  | 0.125 to 1 µg/mL
CC[C@H](C)[C@@H]1NC(=O)[C@H](CCCNC(=N)N)NC(=O)[C@H]([C@@H](C)O)NC(=O)[C@H](Cc2c[nH]c3ccccc23)NC(=O)[C@H](Cc2ccccc2)NC(=O)[C@H](Cc2c[nH]c3ccccc23)NC(=O)[C@H](CCCNC(=N)N)NC(=O)[C@H](CCCNC(=N)N)NC(=O)[C@H](CCCNC(=N)N)NC(=O)[C@H](Cc2ccccc2)NC(=O)CNC(=O)[C@H](CCCCN)NC(=O)[C@@H](NC(=O)[C@H](CCCNC(=N)N)NC(=O)CNC(=O)CN)CSSC[C@@H](C(N)=O)NC1=O | Botrytis cinerea | resazurin | synthetic fungal medium | added: NaCl 100 mM | 1.5 µM
CCCCCCCCCC(=O)NCCCC[C@H](NC(=O)CCCCCCCCC)C(=O)N[C@@H](CCCCNC(=O)CCCCCCCCC)C(=O)NCC(=O)NCC(=O)NCC(=O)N[C@@H](CS)C(=O)N[C@@H](CCCNC(=N)N)C(=O)N[C@@H](CCCCN)C(=O)N1CCC[C@H]1C(=O)N[C@@H](CS)C(=O)N[C@@H](CCCNC(=N)N)C(=O)N[C@@H](CCCCN)C(=O)N1CCC[C@H]1C(N)=O | Candida tropicalis | broth microdilution | CGMCC 2.197, RPMI-1640 | 48 h, 30 °C | 16 µM
CC(C)C[C@H](NC(=O)[C@@H](NC(=O)[C@H](CCCNC(=N)N)NC(=O)[C@H](CCC(N)=O)NC(=O)[C@H](Cc1ccccc1)NC(=O)[C@H](Cc1ccc(O)cc1)NC(=O)[C@H](CC(N)=O)NC(=O)[C@H](Cc1c[nH]c2ccccc12)NC(=O)[C@@H](NC(=O)[C@H](CCCNC(=N)N)NC(=O)[C@H](CCCCN)NC(=O)[C@@H](N)Cc1ccccc1)C(C)C)C(C)C)C(=O)N[C@H](C(=O)N[C@@H](CCCCN)C(=O)N[C@@H](CCCCN)C(=O)N[C@@H](Cc1ccc(O)cc1)C(N)=O)C(C)C | Enterobacter sp. | broth dilution | KCTC 2625 |  | < 3.1 µM
